Experimental data collected from several papers.
Each line is one published result; not all experiments were run side by side. Numbers after ± are the reported error.

`CCCC[C@H](NC(=O)CN1CCC(NC(=O)CN2CCN(CC(N)=O)CCN(CC(N)=O)CCN(CC(N)=O)CC2)CC1)C(=O)N[C@H]1CC(=O)NCCCC[C@@H](C(N)=O)NC(=O)[C@H](Cc2c[nH]c3ccccc23)NC(=O)[C@H](CCCNC(=N)N)NC(=O)[C@@H](Cc2ccccc2)NC(=O)[C@H](Cc2c[nH]cn2)NC1=O` [lead-203 labelled] has a logD of -2.43 ± 0.26 (shake flask; n-octanol/PBS; pH 7.4, 203Pb-labelled).
`N=C(N)NCCC[C@@H]1NC(=O)[C@H](CCCCNC(=O)CCC(NC(=S)Nc2ccc(CC3CN(CC(=O)O)CCN(CC(=O)O)CCN(CC(=O)O)CCN3CC(=O)O)cc2)C(=O)NCCCC[C@@H]2NC(=O)[C@@H](Cc3ccc(O)cc3)NC(=O)[C@H](CC(=O)O)NC(=O)CNC(=O)[C@H](CCCNC(=N)N)NC2=O)NC(=O)[C@@H](Cc2ccc(O)cc2)NC(=O)[C@H](CC(=O)O)NC(=O)CNC1=O` (stereo partly drawn) [scandium-44 labelled] gave a tissue uptake of 1.73 ± 0.47 %ID/g (PET imaging ROI; female athymic nude mice, U-87 MG xenograft, liver; intravenous, 0.5 h).
For `CC(C)C[C@@H]1NC(=O)[C@H](CC(=O)O)NC(=O)CNC(=O)[C@H](CCCNC(=N)N)NC(=O)[C@H](Cc2ccccc2)NC(=O)[C@H](CCCCNC(=O)CCc2cn(CCCNC(=O)CCC(C(=O)O)N3CCN(CC(=O)O)CCN(CC(=O)O)CCN(CC(=O)O)CC3)nn2)N(C)C(=O)[C@H]2CCCN2C(=O)[C@H](Cc2ccccc2)NC(=O)[C@H](C)NC1=O` (stereo partly drawn), the tissue-to-tissue ratio was 4.6 ± 1.1 (female CB17 SCID mice, tumour and spleen; intravenous, dose not given, 90 min, 177Lu-labelled; baseline: tumour over spleen).
The logD of `Cc1cc(O)cc(C)c1C[C@H](N)C(=O)N[C@H](CCCNC(=N)N)C(=O)N[C@@H](Cc1ccccc1)C(=O)N[C@@H](CCCCN)C(=O)NCCCCCC(=O)N[C@@H](CCCCNC(=O)CN1CCN(CC(=O)O)CCN(CC(=O)O)CCN(CC(=O)O)CC1)C(N)=O` [indium-111 labelled] is reported as -4.55 ± 0.11 (pH 7.4).
The tissue-to-tissue ratio of `CC(C)C[C@@H]1NC(=O)[C@H](CC(=O)O)NC(=O)CNC(=O)[C@H](CCCNC(=N)N)NC(=O)[C@H](Cc2ccccc2)NC(=O)[C@H](CCCCNC(=O)CCc2cn(CCCNC(=O)CN3CCN(CC(=O)O)CCN(CC(=O)O)CCN(CC(=O)O)CC3)nn2)N(C)C(=O)[C@H]2CCCN2C(=O)[C@H](Cc2ccccc2)NC(=O)[C@H](C)NC1=O` is reported as 3.9 ± 2.8 (female CB17 SCID mice, tumour and eye; intravenous, dose not given, 90 min, 177Lu-labelled; baseline: tumour over eye).
For `CCCCCCCCCCCCCCC(=O)N[C@@H](CCCCNC(=O)CN1CCN(CC(=O)O)CCN(CC(=O)O)CCN(CC(=O)O)CC1)C(=O)N[C@@H](CCC(=O)NCCCC[C@@H]1NC(=O)[C@@H](Cc2ccccc2)NC(=O)[C@H](CC(=O)O)NC(=O)CNC(=O)[C@H](CCCNC(=N)N)NC1=O)C(=O)NCCCC[C@@H]1NC(=O)[C@@H](Cc2ccccc2)NC(=O)[C@H](CC(=O)O)NC(=O)CNC(=O)[C@H](CCCNC(=N)N)NC1=O` [indium-111 labelled], the tumour uptake was 8.59 ± 0.24 %ID/g (female BALB/c nude mice, U-87 MG xenograft, tumour; intravenous, 4 h).
`CCCCCCCCCCCCCCCCCCCCCCCCCC(=O)O[C@H](CCCCCCCCCCCCCC)[C@@H](O)[C@H](CO[C@H]1O[C@H](CO)[C@H](O)[C@H](O)[C@H]1O)NC(=O)OCc1ccc(NC(=O)[C@H](CCCNC(N)=O)NC(=O)[C@@H](NC(=O)CCCCCn2cc(CCC(=O)N[C@@H](Cc3ccccc3)C(=O)N[C@@H](Cc3ccccc3)C(=O)N[C@@H](CCCNC(=N)N)C(=O)N[C@@H](CCCCN)C(=O)N[C@@H](CO)C(=O)N[C@H](C(=O)N[C@H](C(=O)N[C@@H](CC(N)=O)C(=O)N[C@@H](Cc3ccccc3)C(=O)N[C@@H](CCC(=O)O)C(=O)N[C@@H](CCCCN)C(=O)N[C@@H](CC(C)C)C(=O)O)[C@@H](C)CC)[C@@H](C)CC)nn2)C(C)C)cc1` gave a α-GalCer released of < 0.05% (HPLC-ESI-MS/MS; aqueous ammonium acetate; 10 µg/mL, eight days, pH 9.0, 20 °C).
The tumour uptake of `CC(C)C[C@H](NC(=O)[C@@H](N)Cc1ccccc1)C(=O)N[C@@H](C)C(=O)N[C@H]1CSCc2cccc(n2)CSC[C@@H](C(=O)N[C@H](C(=O)NCC(=O)N[C@@H](CO)C(=O)N[C@@H](Cc2c[nH]c3ccccc23)C(=O)N[C@@H](CCCCNC(=O)CN2CCN(CC(=O)O)CCN(CC(=O)O)CCN(CC(=O)O)CC2)C(N)=O)[C@@H](C)O)NC(=O)[C@H](Cc2c[nH]cn2)NC(=O)[C@H]([C@@H](C)O)NC(=O)[C@H](CCC(=O)O)NC(=O)[C@@H]2CCCN2C1=O` [gallium-68 labelled] is reported as 4.63 ± 0.42 %ID/g (PET/CT; C57BL/6J mice, B16-F10 tumour, tumour; intravenous, 3.7 MBq, 1 h).
`CC[C@H](C)[C@@H]([C@@H](CC(=O)N1CCC[C@H]1[C@H](OC)[C@@H](C)C(=O)N[C@H](C)[C@@H](O)c1ccccc1)OC)N(C)C(=O)[C@@H](NC(=O)[C@H](C(C)C)N(C)C(=O)OCc1ccc(NC(=O)[C@H](CCCNC(N)=O)NC(=O)[C@@H](NC(=O)CCCCCN2C(=O)CC(SC[C@H](NC(=O)[C@H](CC(=O)O)NC(=O)[C@H](Cc3ccc(O)cc3)NC(=O)[C@H](Cc3c[nH]c4ccccc34)NC(=O)[C@@H](N)CCCNC(=N)N)C(=O)O)C2=O)C(C)C)cc1)C(C)C` (stereo partly drawn): concentration “not detected” (C57BL/6 mouse, healthy, spleen; intraperitoneal, 2.5 mg/kg, 6 h).
For `CC(=O)N[C@@H](CC(C)C)C(=O)N[C@H](C(=O)N[C@@H](Cc1ccccc1)C(=O)N[C@]1(C)CCCCCC/C=C/CCC[C@@](C)(C(=O)N[C@@H](C)C(=O)N[C@@H](C)C(=O)N[C@@H](C)C(=O)N[C@@H](C)C(=O)N[C@@H](C)C(=O)N[C@H](C)C(N)=O)NC(=O)[C@H](CC(C)C)NC(=O)[C@H](CCCCNC(=O)CCNC(=O)C[C@@H]2N=C(c3ccc(Cl)cc3)c3c(sc(C)c3C)-n3c(C)nnc32)NC(=O)[C@H](C)NC(=O)[C@H](Cc2c[nH]c3ccccc23)NC(=O)[C@H](Cc2ccc(O)cc2)NC(=O)[C@H](C)NC1=O)[C@@H](C)O`, the half-life was 5.01 h (male C57BL/6 mouse, plasma; intravenous, 3 mg/kg).
The tissue uptake of `C[C@@H](O)[C@@H]1NC(=O)[C@@H](NC(=O)CCOCCOCCOCCOCCNC(=O)c2ccc(NN)nc2)CSSC[C@@H](C(=O)O)NC(=O)[C@H](Cc2c[nH]cn2)NC(=O)[C@H](CO)NC(=O)[C@H](Cc2ccccc2)NC(=O)[C@@H]2CCCN2C(=O)[C@H](CO)NC(=O)[C@@H]2CCCN2C1=O` [technetium-99m labelled] is reported as 0.27 ± 0.1 %ID/g (mouse HCT-116 xenograft, spleen; intravenous, 37 MBq, postmortem after imaging).
Under “time to maximum uptake”, `CC(C)C[C@H](NC(=O)[C@@H]1CCCN1C(=O)[C@H](CCCCN)NC(=O)[C@@H](N)CO)C(=O)N1CCC[C@H]1C(=O)N[C@@H](CCC(=O)O)C(=O)N[C@H](C(=O)N[C@H](C(=O)N[C@@H](CC(=O)O)C(=O)N[C@@H](CCC(=O)O)C(=O)N[C@@H](Cc1ccc(O)cc1)C(=O)NCC(=O)NCCOCCOCCOCCOCCOCCOCCOCCOCCOCCOCCOCCOCCOCCOCCOCCOCCOCCOCCOCCOCCOCCOCCOCCOCCC(=O)N[C@@H](CCCCNC(=O)CC[C@H](C(=O)O)N1CCN(CC(=O)O)CCN(CC(=O)O)CC1)C(=O)N1CCN(CCCN(C)c2ccc3nccc(C(=O)NCC(=O)N4CC(F)(F)C[C@H]4C#N)c3c2)CC1)[C@@H](C)O)C(C)C` [copper-64 labelled] is recorded as ≥ 10 min (PET; NMRI nude mouse, HT-1080 hFAP xenograft, tumour; intravenous).

A few entries again:
The tissue-to-tissue ratio of `CC(C)C[C@@H]1NC(=O)[C@H](CC(=O)O)NC(=O)CNC(=O)[C@H](CCCNC(=N)N)NC(=O)[C@H](Cc2ccccc2)NC(=O)[C@H](CCCCNC(=O)CCc2cn(CCCNC(=O)CN3CCN(CC(=O)O)CCN(CC(=O)O)CCN(CC(=O)O)CC3)nn2)N(C)C(=O)[C@H]2CCCN2C(=O)[C@H](Cc2ccccc2)NC(=O)[C@H](C)NC1=O` is reported as 3.9 ± 2.8 (female CB17 SCID mice, tumour and eye; intravenous, dose not given, 90 min, 177Lu-labelled; baseline: tumour over eye).
For `CCCCCCCCCCCCCCC(=O)N[C@@H](CCCCNC(=O)CN1CCN(CC(=O)O)CCN(CC(=O)O)CCN(CC(=O)O)CC1)C(=O)N[C@@H](CCC(=O)NCCCC[C@@H]1NC(=O)[C@@H](Cc2ccccc2)NC(=O)[C@H](CC(=O)O)NC(=O)CNC(=O)[C@H](CCCNC(=N)N)NC1=O)C(=O)NCCCC[C@@H]1NC(=O)[C@@H](Cc2ccccc2)NC(=O)[C@H](CC(=O)O)NC(=O)CNC(=O)[C@H](CCCNC(=N)N)NC1=O` [indium-111 labelled], the tumour uptake was 8.59 ± 0.24 %ID/g (female BALB/c nude mice, U-87 MG xenograft, tumour; intravenous, 4 h).
